Published values gathered from unrelated publications.
A part holds a random share of what one study measured. Substitutions count along the parent as printed.

Sample 1 — method: protein-binding microarray; form: double-stranded DNA, one strand shown; medium: in vitro; tested at: not given; direction: higher = stronger binding
Target: Myc proto-oncogene protein, bHLH-zipper, MAX partner unstated (MYC, Homo sapiens, UniProt P01106, residues 368-449)
Sequence of UniProt P01106 (368-449, looked up): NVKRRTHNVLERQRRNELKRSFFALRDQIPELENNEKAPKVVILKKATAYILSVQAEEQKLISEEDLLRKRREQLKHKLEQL
Setting: k-mer, scored over probes, only values ≥0.25
| Strand | E-score |
| --- | --- |
| AAACATGT | 0.321 |
| AAGCGTGA | 0.282 |
| CCACCCAC | 0.347 |
| CATGGAGG | 0.32 |
| AATGTGTG | 0.324 |
| ACGCGCAC | 0.323 |
| GCATGCAC | 0.417 |
| CGTGATAA | 0.287 |

Sample 2 — method: RNA Bind-n-Seq; form: RNA; medium: in vitro; tested at: 1 µM; setting: whole 134-nt RNA, ends assumed; with: 150 mM KCl; relative to: input library; direction: higher = stronger binding
Target: Ras GTPase-activating protein-binding protein 1, RRM domain (G3BP1, Homo sapiens, UniProt Q13283)
Sequence of UniProt Q13283 (whole entry, looked up): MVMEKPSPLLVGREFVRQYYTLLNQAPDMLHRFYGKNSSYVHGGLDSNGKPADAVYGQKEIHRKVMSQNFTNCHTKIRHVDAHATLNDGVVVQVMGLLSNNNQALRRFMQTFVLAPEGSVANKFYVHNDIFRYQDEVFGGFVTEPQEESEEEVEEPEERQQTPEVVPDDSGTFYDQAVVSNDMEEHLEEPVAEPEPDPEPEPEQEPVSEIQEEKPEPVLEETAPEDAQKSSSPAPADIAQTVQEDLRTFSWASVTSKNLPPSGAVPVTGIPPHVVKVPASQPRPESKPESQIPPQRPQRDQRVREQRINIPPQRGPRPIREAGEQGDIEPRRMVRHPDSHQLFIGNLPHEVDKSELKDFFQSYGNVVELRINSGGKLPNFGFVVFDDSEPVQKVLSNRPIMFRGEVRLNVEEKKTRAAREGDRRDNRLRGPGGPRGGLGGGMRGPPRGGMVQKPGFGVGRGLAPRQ
| Strand | log2 enrichment |
| --- | --- |
| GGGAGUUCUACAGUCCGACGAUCCUCAAGUCCUGUGCUACACAUCGUAUGUACCGAAUCGGUUUGGAAAAAGGAGGAAAGUAUUAUGUUACGCCGUUCGGAUCUGCACUUCCAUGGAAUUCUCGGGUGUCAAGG | -0.173 |
| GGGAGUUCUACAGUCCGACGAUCAAGUCCUGUGCUACACAUCGUAUGUACCGAAUCGGGGCCCCGGCCCCGGCCCCGGGAAAGUAUUAUGUUACGCCGUUCGGAUCUGCACUUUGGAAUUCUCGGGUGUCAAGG | -0.691 |
| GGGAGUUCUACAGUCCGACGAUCUCAAGUCCUGUGCUACACAUCGUAUGUACCGAAUCGGGUUUGGGAGGGAAAGGGAAAGUAUUAUGUUACGCCGUUCGGAUCUGCACUUCCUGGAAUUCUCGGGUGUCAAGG | 0.753 |
| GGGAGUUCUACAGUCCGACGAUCACCAUGCAGGUGGGCAUAUUUGGGAAGUGGGGCAAGGGGGGGAUAGGGAGGGGGGUAACACUUUGGGAACAGGUGGUCCCAGGUCGUUUCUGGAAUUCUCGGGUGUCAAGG | -0.418 |
| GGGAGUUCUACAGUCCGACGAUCUGGCCCUGGUGGCAUGCGGGGAGGAAGAGGUGGCCUCAUGGACCGUGGUGGUCCCGGUGGAAUGUUCAGAGGUGGCCGUGGUGGAGACAGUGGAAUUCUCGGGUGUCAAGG | 0.972 |
| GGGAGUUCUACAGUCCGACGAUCAAGUCCUGUGCUACACAUCGUAUGUACCGAAUCGGUUUUUUUGGAAAGGUUUUUGGAAAGUAUUAUGUUACGCCGUUCGGAUCUGCACUUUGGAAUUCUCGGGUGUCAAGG | -0.428 |
| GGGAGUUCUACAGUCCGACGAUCGUCCUGUGCUACACAUCGUAUGUACCGAAUCGGGUUUUUUUGGGAAAAAAAGGGAGGGAAAGUAUUAUGUUACGCCGUUCGGAUCUGCACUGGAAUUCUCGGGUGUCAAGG | 0.0913 |
| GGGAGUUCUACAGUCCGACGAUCGCAGGAAGUAAAAACAAAUGGAAAUGCUUCGGAUAGUGGCAGGGGUGGGGGUUGCUAAGUAAAGGGUGGGAUGGGAGUGGGUAAAGAGUUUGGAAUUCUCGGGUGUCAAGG | 1.27 |

Sample 3 — method: RNA Bind-n-Seq; form: RNA; medium: in vitro; tested at: 365 nM; relative to: no-protein control; direction: higher = stronger binding
Target: RNA binding protein fox-1 homolog 2, RRM domain, GST-SBP tag (RBFOX2, Homo sapiens, UniProt O43251-10, residues 100-194)
Setting: natural RNA segment, single round, ends assumed
Target sequence (chain): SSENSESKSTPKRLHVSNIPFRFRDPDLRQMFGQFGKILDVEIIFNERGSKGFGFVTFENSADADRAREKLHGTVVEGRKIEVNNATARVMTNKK
| Strand | RBNS enrichment (R) |
| --- | --- |
| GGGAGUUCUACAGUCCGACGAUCUUGUGAUUCUGGGGUCUCUUCAAUGACCCCGGUACCUCAUGAACCCCUGCUUAGCAUGGUUGUGCUACCAUCCAGGAGAAUGUUGAUGGAACCAAAUUAAAUAUUUACUGUGGAAUUCUCGGGUGCCAA | 0.611 |
| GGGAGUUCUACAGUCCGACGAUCAUUUAAAAGGUCAGGGUGUUAUUUUCUUCUAUAAUAAAACAGCUCACUUGUGUUGUGCUCCAGAGUGUUUGUCUGACCGAGCAUCAUCACACAAACACUUGAGUCUGAUUUGGAAUUCUCGGGUGCCAA | 0.364 |
| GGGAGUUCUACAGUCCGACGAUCGCAUUUUUAUUAAUGUGUAGAUUUAUGGUCUGAUCUGAAGAUGUUUGAGUAAUAUAUUUUUAAGAACACCACUGGUCCUGUAAGUCUUGCCUCCUUGGCUUCUACUAGAGUGGAAUUCUCGGGUGCCAA | 0.237 |
| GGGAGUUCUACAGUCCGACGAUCAAGUCCCAGGUUUAAAAAGCAAAGCAAAACAAAAAUAACCACGUAUUCUCUAAAGGGCUCUUGUCUGUUCAUUCAUCUCCCAUUCGUUCACUUAGUCAACAAGUGAUAAGUGGAAUUCUCGGGUGCCAA | 0.643 |
| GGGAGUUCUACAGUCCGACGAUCCAACAGUCAAAGCAAUUAGAGACCAUACCUAAUAUUGUUUAAAUUCUAGAUGUAGGCUAACAAUGAAAAGUAUUUGCCAAACUGAAUAAAACUGUCAUGGUUACCUUGAAUGGAAUUCUCGGGUGCCAA | 0.361 |
| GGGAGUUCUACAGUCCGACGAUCUUGUUAAAUAAUGAUAUGUAACUUUUUAACUUUUUAAAUAAAUAACAAGAUUUUUAAUGUGUGUCUCCCUCAGGGUUGUUUAAAGUUUUUUUUCUCCCUCAAGUAUAAAUUGGAAUUCUCGGGUGCCAA | 0.887 |
| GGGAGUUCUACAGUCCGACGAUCGUAUCUGAGAAACUAAACAUGUAUUAAAUGUGCUUUUUAAAUAAAAGCUCAUAACACAACUAACCAAGGCACUGGUGCCUGAGCUGUUAAAAGGAUGUUUCUUUGGGAUCUGGAAUUCUCGGGUGCCAA | 0.357 |
| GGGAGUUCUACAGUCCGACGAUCUGAGUUGUUGUUUUUUUUUAAAUGGGGGUAGUUUUCUAUCUGUCAUGGGCUCUAGCAUCUACUCCGCUACCCAAUUCUGUCAUCUCCAAGCUGAGUUUCCUCUUCUGAGGUGGAAUUCUCGGGUGCCAA | 0.353 |

Single results of other studies
Parent: viral docking peptide; KGVKRKLFAEDSS; partner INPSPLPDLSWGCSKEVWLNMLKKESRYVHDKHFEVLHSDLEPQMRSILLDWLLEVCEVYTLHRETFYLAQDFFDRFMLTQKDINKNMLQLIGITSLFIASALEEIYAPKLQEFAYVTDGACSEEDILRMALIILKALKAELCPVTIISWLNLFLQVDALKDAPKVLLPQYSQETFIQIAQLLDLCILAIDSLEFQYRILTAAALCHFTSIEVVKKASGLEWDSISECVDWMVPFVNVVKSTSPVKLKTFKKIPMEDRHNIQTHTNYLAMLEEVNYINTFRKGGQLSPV
| Change | target | assay | test system | conditions | how to read | endpoint | result |
| --- | --- | --- | --- | --- | --- | --- | --- |
| KGVKRKLFAYDSS [E10Y] | CCNE2, cyclin fold, Cln2 fusion (human) | yeast growth competition, sequencing | yeast | strong parent motif | relative to: not given, higher = stronger binding | normalised enrichment score | 4.63 |

Excerpt of the above (sample 3):
| Strand | RBNS enrichment (R) |
| --- | --- |
| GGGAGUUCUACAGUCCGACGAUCCAACAGUCAAAGCAAUUAGAGACCAUACCUAAUAUUGUUUAAAUUCUAGAUGUAGGCUAACAAUGAAAAGUAUUUGCCAAACUGAAUAAAACUGUCAUGGUUACCUUGAAUGGAAUUCUCGGGUGCCAA | 0.361 |
